{"data": "Published values collected from several papers", "technique": "steady-state kinetics", "B1": "protein F432W (Streptomyces toyocaensis, UniProt Q8KLK7); chain MTTVLPPLEDTDGLWAALTEAAASVEKLLATLPEHGARSSAERAEIAAAHDAARALRVRFLDTHADAVYDRLTDHRRVHLRLAELVEAAATAFPGLVPTQQQLAVERSLPQAAKEGHEIDQGIFLRAVLRSPLAGPHLLDAMLRPTPRALELLPEFVRTGEVEMEAVHLERRDGVARLTMCRDDRLNAEDGQQVDDMETAVDLALLDPGVRVGLLRGGVMSHPRYRGKRVFSAGINLKYLSQGGISLVDFLMRRELGYIHKLVRGVLTNDDRPGWWHSPRIEKPWVAAVDGFAIGGGAQLLLVFDRVLASSDAYFSLPAAKEGIIPGAANLRLGRFAGPRVSRQVILEGRRIWAKEPEARLLVDEVVEPDELDAAIERSLTRLDGDAVLANRRMLNLADESPDGFRAYMAEFALMQALRLYGHDVIDKVGRWGGRPPA", "B2": "Lxyl-p1-1 V91S (Lentinula edodes, UniProt G8GLN9); chain YFSGLGLGSERSIFRRDLNSTGDESNSTQWPAPLANGGKSWASAFKKAKSTVAEMTVEELANITSGVIGLCSGVTGAVTRLGIPELCLQDGPIGPRGVHGSSQFPAGLTVAATWDRTLMYARARGMGQEFHDQGVHIALAPVTGGPLGRTPLNGRGWEGTFADPYACGEASYQSVKGLTDAGVATVSKHWIAYEQETSRNLYIEFDGVSQADIQLPISSNVDDLTMHELYMWSFAEAVRAGTNHIMCSYNRINNTHSCNNAKGLNQLLKTELNFQGGVVSDWGGQWDSVLSAENGLDVGMPGEGFLGELGDFWGTTLADLINNGTVSEDLVRDKVVRLLTGYYYLGQDINPPPPFVYNTIGAPTLNATSGYRNVRKPGTAELIKEIGSASVTLLKNTGSLPLKHPQRIAVLGNDATYNVLGPNACGLANSACDIDNLNGTLTTGGGSGSALSPYTITPLEALQKRAIEDNAEIAAVVANSNTTTGAEDAIAALLPDADVTFVFLNRYSEEGADAPDFSLGGDGDNLMDLAVTYSSNVVVVIHTTGVVDIEKWADNPNVTAILVAYLPGQEAGNSLVPVLYGDVAPSGKLPWTWGKSIDDYVPNGVVYTDAYSPQSNFTEGVFIDYRWFDKMGITPRYEFGFGLSYTTFTYSNLIVDHGRWAKDYSSVMETAEPFAEWDGTNSLYDVIFTVFATITNTGNLTGSEVAQLYISIPGDNQPVRQLRGFDKIKDLPVGDSAVVTFPIRRKDVSSWSVVDQLWYVPNGDFLISVGGSSRDLPLNTTWTP", "B3": "nitrilase Y142A (Rhodococcus rhodochrous, UniProt A4LA85); chain MVEYTNTFKVAAVQAQPVWFDAAKTVDKTVSIIAEAARNGCELVAFPEVFIPGYPYHIWVDSPLAGMAKFAVRYHENSLTMDSPHVQRLLDAARDHNIAVVVGISERDGGSLYMTQLIIDADGQLVARRRKLKPTHVERSVAGEGNGSDISVYDMPFARLGALNCWEHFQTLTKYAMYSMHEQVHVASWPGMSLYQPEVPAFGVDAQLTATRMYALEGQTFVVCTTQVVTPEAHEFFCENEEQRKLIGRGGGFARIIGPDGRDLATPLAEDEEGILYADIDLSAITLAKQAADPVGHYSRPDVLSLNFNQRRTTPVNTPLSTIHATHTFVPQFGALDGVRELNGADEQRALPSTHSDETDRATASI", "B4": "enzyme R237A (Acetivibrio thermocellus, UniProt A3DJ38); chain MKLTIPELSLVVLIGSSGSGKSTFAKKHFKPTEVISSDFCRGLVSDDENDQTVTGAAFDVLHYIVSKRLQLGKLTVVDATNVQESARKPLIEIAKDYHCFPVAVVFNLPEKVCQERNKNRTDRQVEEYVIRKHTQQLKKSIKGLQREGFRYVYILNSPEEVEEVVFERQPLWNNKKDEHGPFDIIGDIHGCYDELKMLLEKLGYLIEEVEGGVGSGKYRVTHPEGRKVLFLGDLVDAGPKITEVLKLVMGMVKSGIALCVPGNHDVKLLRKLNGRDVQITHGLDRTLEQLAKEPQEFIEEVKAFIDGLVSHYVLDDGKLVVAHAGMKEEFQGRGSGKVREFALYGETTGETDEYGLPVRYDWASDYRGKALVVYGHTPQAEVLKVNNTINIDTGCVFGGKLTAYRYPEREIVDVKALKTYYEPAKPFLPKEDMAERFEARTDNDILDINDVLGKKIITTRLMSSITIHEENSIAALEVMSRFAADPHWLIYLPPTMSPCETSKKEGMLEHPIEAFEYFRTRGVGKVVCEQKHMGSRAVVIVCKDSQVAEKRFGVLDGTAGICYTRTGRHFFDDMQLEAELIDRVRKVLDKSGFWGDFNTDWVCLDCELMPWSAKAQKLLEEQYSAVGISGRVVLDEAVKLLKQASLNKTVSFDVSRQTSGKNADINELLQRFTERSEMMQKYVEAYRKYCWPVNSIDDLKLAPFHILATEGKVHSDKNHIWHMDTIAKYCTQDDSLIMATNHILVDVTDAESVDKGIKWWEDLTASGGEGMVVKPYDFIVKNGRELLQPAVKCRGREYLRIIYGPEYTMDENIERLRNRAVGKKRSLALREFSLGMEALERFVRNEPLYRVHECVFGVLALESEPVDPRL", "note": "Lines come from different studies, so protocols differ. Numbers after ± are the reported error."}
{"Molecule": "B1 (protein F432W)", "substrate": "CC(C)(COP(=O)(O)OP(=O)(O)OC[C@H]1O[C@@H](n2cnc3c(N)ncnc32)[C@H](O)[C@@H]1OP(=O)(O)O)[C@@H](O)C(=O)NCCC(=O)NCCSC(=O)Cc1cc(O)cc(O)c1", "conditions": "pH 7.5, 24 °C, added: O2", "kcat": "0.081 ± 0.006 s⁻¹"}
{"Molecule": "tgt C145V/P147N/T146V/V217G (Escherichia coli)", "substrate": "Nc1nc2nc[nH]c2c(=O)[nH]1", "conditions": "pH 7.3, 37 °C", "kcat": "0.00062 s⁻¹"}
{"Molecule": "B2 (Lxyl-p1-1 V91S)", "substrate": "[H][C@]12[C@H](OC(=O)c3ccccc3)[C@]3(O)C[C@H](OC(=O)[C@H](O)[C@@H](NC(=O)c4ccccc4)c4ccccc4)C(C)=C([C@@H](O)C(=O)[C@]1(C)[C@@H](O[C@@H]1OC[C@@H](O)[C@H](O)[C@H]1O)C[C@@]1([H])OC[C@@]21OC(C)=O)C3(C)C", "kcat": "4.75 ± 0.35 s⁻¹"}
{"Molecule": "BBE1 (Eschscholzia californica, UniProt P30986)", "substrate": "COc1ccc(C[C@H]2c3cc(O)c(OC)cc3CCN2C)cc1O", "conditions": "pH 9, 25 °C, apparent", "kcat": "5.4 ± 0.3 s⁻¹"}
{"Molecule": "L-lactate oxidase (Aerococcus viridans, UniProt Q44467)", "substrate": "O=C1C(Cl)=CC(=Nc2ccc(O)cc2)C=C1Cl", "conditions": "pH 6.5, 22 °C, varied electron acceptor, apparent, added: L-lactic acid 200 mM", "kcat": "189 ± 11 s⁻¹"}
{"Molecule": "plcB (Listeria monocytogenes, UniProt P33378)", "substrate": "CCCCCCC(=O)OC[C@H](COP(=O)([O-])OCC[N+](C)(C)C)OC(=O)CCCCCC", "conditions": "pH 6, 37 °C", "kcat": "8.5 ± 0.7 s⁻¹"}
{"Molecule": "B3 (nitrilase Y142A)", "substrate": "N#Cc1ccccn1", "conditions": "pH 7.5, 25 °C", "kcat": "0.0003083 ± 1.67e-06 s⁻¹"}
{"Molecule": "B4 (enzyme R237A)", "substrate": "Nc1ncnc2c1ncn2[C@@H]1O[C@H](CO)[C@H]2OP(=O)(O)O[C@H]21", "conditions": "pH 7.5, 45 °C", "kcat": "8.55 ± 0.0167 s⁻¹"}
{"Molecule": "dnrK (Streptomyces peucetius, UniProt Q06528)", "substrate": "O=[N+]([O-])c1ccc(O)c(Cl)c1", "conditions": "pH 8, 37 °C", "kcat": "0.000317 ± 1.67e-05 s⁻¹"}
{"Molecule": "wbpB (Pseudomonas aeruginosa, UniProt G3XD23)", "substrate": "CC(=O)N[C@H]1[C@@H](OP(=O)(O)OP(=O)(O)OC[C@H]2O[C@@H](n3ccc(=O)[nH]c3=O)[C@H](O)[C@@H]2O)O[C@H](C(=O)O)[C@@H](O)[C@@H]1O", "conditions": "pH 8.5, 25 °C", "kcat": "5550 ± 70 s⁻¹"}
{"note": "A few entries again:"}
{"Molecule": "dnrK (Streptomyces peucetius, UniProt Q06528)", "substrate": "O=[N+]([O-])c1ccc(O)c(Cl)c1", "conditions": "pH 8, 37 °C", "kcat": "0.000317 ± 1.67e-05 s⁻¹"}
